Results collected from several papers.
Compare with care: the assays were run in different laboratories. Values joined by “and” are separate records of one study, mostly repeats; a detail may differ. ± marks the error that the study gave.
CASP10: Caspase-10 (CASP10, Homo sapiens, UniProt Q92851)
CASP8: Caspase-8 (CASP8, Homo sapiens, UniProt Q14790)
PTPN11: Tyrosine-protein phosphatase non-receptor type 11 (PTPN11, Homo sapiens, UniProt Q06124)

| SMILES | target | test | test system | setting | how to read | measurement | value |
| --- | --- | --- | --- | --- | --- | --- | --- |
| CC[C@H](C)[C@H](NC(=O)[C@H](CCC(N)=O)NC(=O)[C@@H](NC(=O)[C@@H]1CCCN1[C@@H]1CN(C(=O)[C@H](CCCCN)NC(=O)[C@H](CC(N)=O)NC(=O)[C@@H](NC(=O)[C@@H](NC(=O)[C@H](CCC(N)=O)NC(=O)[C@@H](N)C(C)C)[C@@H](C)CC)[C@@H](C)CC)CC[C@H]1NS(=O)(=O)c1ccc(C)cc1)C(C)C)C(=O)N[C@H](C(=O)N[C@@H](Cc1ccc(O)cc1)C(=O)N[C@@H](CCCCN)C(N)=O)C(C)C | Microtubule-associated protein tau, 2N4R isoform (MAPT, Homo sapiens, UniProt P10636, del597-597) | ThT fluorescence |  | 0.1-fold over protein, added: tau ΔK280 10 µM | relative to: untreated | fibrillization half-time | 121 ± 24% |
| CC(=O)N[C@@H](CC(C)C)C(=O)N[C@@H](CCC(=O)O)C(=O)N[C@@H](COCc1ccccc1)C(=O)N[C@@H](CC(=O)O)C(=O)COC(=O)c1c(C)cccc1C | CASP10 | enzyme activity, inhibitor |  |  |  | kinact/KI | 404000 M⁻¹ s⁻¹ |
| Cn1cc(-c2cc(N3CCCCS3(=O)=O)ccc2N[C@H]2CC[C@H](C)CC2)c2cc[nH]c2c1=O (stereo in doubt) | KAT2A (Homo sapiens, UniProt Q92830) | binding, competition with immobilised ligand |  | 1 µM |  | remaining binding | 100% |
| CO[C@@H]1[C@H](O)[C@@H](COP(=O)(O)OP(=O)([O-])C(F)(F)P(=O)(O)OP(=O)(O)OC[C@H]2O[C@@H](n3cnc4c(=O)[nH]c(N)nc43)[C@H](O)[C@@H]2O)O[C@H]1n1c[n+](C)c2c(O)nc(N)nc21 | DCPS (Homo sapiens, UniProt Q96C86) | substrate, HPLC |  | concentration not given, 15 min |  | hydrolysis | 2.3 ± 0.4% |
| CC(=O)N[C@@H](CC(C)C)C(=O)N[C@@H](CCC(=O)O)C(=O)N[C@H](C(=O)N[C@@H](CC(=O)O)C(=O)COC(=O)c1c(C)cccc1C)C(C)C | CASP8 | inhibitor |  | recombinant enzyme |  | kobs/[I] | 1.95e+06 M⁻¹ s⁻¹ |
| CCN(CC)C(CO)c1cccc2c(C)c(C)oc12 (stereo not shown) | LPAR1 (Homo sapiens, UniProt Q92633, W271A) | G-protein dissociation, agonist, NanoBiT | HEK-293T | 100 nM, W271A mutant | relative to: baseline luminescence | fold change | 0.953 and 1.04 and 0.918 and 0.968 and 0.802 and 1.02 |
| CC(=O)N[C@@H](Cc1c[nH]c2ccccc12)C(=O)N[C@@H](CCCCN)C(=O)N[C@@H](CCC(=O)O)C(=O)N[C@@H](CC(=O)O)C(=O)COC(=O)c1c(C)cccc1C | CASP8 | enzyme activity, inhibitor |  |  |  | kinact/KI | 43000 M⁻¹ s⁻¹ |
| CCCCCCCC/C=C\CCCCCCCC(=O)NCCO | Trpv1 (Mus musculus, UniProt Q704Y3, S511T) | ion current, agonist, whole-cell patch clamp |  | S511T |  | Hill coefficient | 1.54 ± 0.44 |
| Cc1cc(=O)oc2c(F)c(OP(=O)(O)O)c(F)cc12 | PTPN11 | dephosphorylation, substrate |  | basal enzyme |  | Km | 2540 ± 40 µM |
| O=c1c(-c2ccc(Cl)c(CN3CCCCC3)c2)coc2cc(O)ccc12 | HSD3B1 (Homo sapiens, UniProt P14060) | [3H]-DHEA conversion | LNCaP | 0.1 µM, normalized to protein, unit not given | relative to: vehicle | DHEA metabolism | 1.97 |
| CCCCCC(O)/C=C/C=O (stereo not shown) | Desumoylating isopeptidase 1 (DESI1, Homo sapiens, UniProt Q6ICB0) | competitive isoTOP-ABPP | Ramos soluble proteome | 100 µM, added: iodoacetamide probe | relative to: DMSO over compound-treated, higher = stronger cysteine blockade | isoTOP-ABPP competition ratio | 2.6 |
| CC1(C)C[C@@H](Nc2cccc(-c3sc(C(=O)O)c(OCC(=O)O)c3Cl)c2)CCN1S(=O)(=O)Cc1cccc(NC(=O)CN2CCC(c3ccc4c(c3)oc(=O)n4C3CCC(=O)NC3=O)CC2)c1 (stereo partly shown) | Tyrosine-protein phosphatase non-receptor type 1 (Mus musculus, UniProt P35821) | degrader, Western blot | B16-F10 | 0.001 µM |  | remaining protein | 94.1% and 104% |
| CNC[C@H](O)c1cccc(OCCOCCOCC#Cc2cccc(Cn3c(-c4ccccc4)c(-c4ccccc4)c4c(=N)n([C@H]5CC[C@H](O)CC5)cnc43)c2)c1 | ADRA1A (Homo sapiens, UniProt P35348) | protein level, degrader, western blot | PC-3 |  |  | Dmax | 88% |
| CC(=O)N[C@@H](CCC(N)=O)C(=O)N[C@@H](CC(C)C)C(=O)N1CCC[C@H]1C(=O)N[C@@H](CC(=O)O)C(=O)COC(=O)c1c(C)cccc1C | CASP10 | enzyme activity, inhibitor |  |  |  | kinact/KI | 14000 M⁻¹ s⁻¹ |
| O=C1c2sc(-c3ccc(N4CCC(CO)CC4)nc3F)nc2CCN1c1cccnc1 | Htr1d (Rattus norvegicus, UniProt P28565) | ligand displacement, radioligand |  | 1 µM |  | inhibition | -13% |
| N#CN1CC[C@H](C(=O)Nc2nc3c(s2)CN(C(=O)Cn2cc(COCCOCCOCCOCCNC(=O)CCCC[C@@H]4SC[C@@H]5NC(=O)N[C@@H]54)nn2)CC3)C1 | PCMT1 (Homo sapiens, UniProt P22061) | probe binding, affinity probe, neutravidin pull-down LC-MS/MS | HEK293T, cell lysate | 5 µM, 1 h, mean of three replicates, unit not given | higher = more pulled down | iBAQ abundance | 2.9e+08 |
| CC(=O)N[C@@H](CC(C)C)C(=O)N[C@H](C(=O)N[C@@H](C)C(=O)N[C@@H](CC(=O)O)C(=O)COC(=O)c1c(C)cccc1C)C(C)(C)C | CASP8 | enzyme activity, inhibitor |  |  |  | kinact/KI | 2.28e+06 M⁻¹ s⁻¹ |
| COc1cc(-c2cn(C)c(=O)c3cnccc23)cc(OC)c1CN(C)C | TRIM24 (Homo sapiens, UniProt O15164) |  |  |  |  | ΔTm | 0.4 °C |
| CC(=O)N[C@H](C(=O)N[C@@H](CCCNC(N)=O)C(=O)N[C@@H](CCO)C(=O)N[C@@H](CC(=O)O)C(=O)COC(=O)c1c(C)cccc1C)C1CCCCC1 | CASP8 | enzyme activity, inhibitor |  |  |  | kinact/KI | 48000 M⁻¹ s⁻¹ |
| C=C1C(=O)C2(C(=O)N3CCN(C(C)=O)CC3)CC(=O)CC1C2 (racemic) | PTPN11 | enzyme activity, covalent inhibitor |  | added: pNPP substrate |  | kinact/KI | 15.4 M⁻¹ s⁻¹ |
| CC(=O)N[C@@H](CC(=O)O)C(=O)N[C@@H](CCCC(=O)O)C(=O)N1[C@H](C(=O)N[C@@H](CC(=O)O)C(=O)COC(=O)c2c(C)cccc2C)C[C@@H]2CCCC[C@@H]21 | CASP10 | enzyme activity, inhibitor |  |  |  | kinact/KI | 263000 M⁻¹ s⁻¹ |
| CC[C@H](C)[C@@H]1NC(=O)[C@H](Cc2ccccc2)NC(=O)[C@H](CCC(=O)O)NC(=O)[C@H](CCCNC(=N)N)NC(=O)CNC(=O)[C@@H](NC(=O)[C@H](CC(C)C)NC(=O)[C@H](CCCNC(=N)N)NC(=O)[C@@H](NC(=O)CNC(=O)[C@H](Cc2ccc(O)cc2)NC(=O)[C@@H]2CCCN2C(=O)[C@H](C)NC(=O)[C@H](C)NC(=O)[C@@H](N)CCCNC(=N)N)C(C)C)CSSC[C@@H]2NC(=O)[C@@H](NC(=O)[C@H](CO)NC(=O)[C@H](CO)NC(=O)[C@H](CO)NC(=O)[C@H](CC(C)C)NC(=O)CNC(=O)[C@H](C)NC(=O)[C@H](CC(C)C)NC(=O)[C@@H](NC(=O)[C@@H](N)CC(=O)O)C(C)C)CSSC[C@H](NC(=O)CNC(=O)[C@H](Cc3c[nH]c4ccccc34)NC(=O)[C@H](CCCCN)NC2=O)C(=O)N[C@@H](CO)C(=O)N[C@@H](CCCCN)C(=O)N[C@@H](CO)C(=O)N[C@@H](CCC(=O)O)C(=O)N[C@@H]([C@@H](C)CC)C(=O)N[C@@H](CO)C(=O)N[C@@H](CO)C(=O)N[C@@H](CC(C)C)C(=O)N[C@H](C(=O)O)CSSC[C@@H](C(=O)NCC(=O)NCC(=O)N[C@@H](CO)C(=O)N[C@@H](CCCNC(=N)N)C(=O)N[C@@H](Cc2c[nH]c3ccccc23)C(=O)O)NC(=O)[C@H]([C@@H](C)O)NC(=O)[C@H](Cc2ccccc2)NC(=O)[C@H]([C@@H](C)CC)NC(=O)[C@H](C(C)C)NC(=O)[C@H](C)NC(=O)[C@H](CCCNC(=N)N)NC1=O | RXFP4 (Homo sapiens, UniProt Q8TDU9, S101A) |  |  | S101A mutant | relative to: wild type | change in Emax | -63.5% and -71% and -63.6% |

Excerpt of the above:
| SMILES | target | test | test system | setting | how to read | measurement | value |
| --- | --- | --- | --- | --- | --- | --- | --- |
| CC(=O)N[C@@H](CCC(N)=O)C(=O)N[C@@H](CC(C)C)C(=O)N1CCC[C@H]1C(=O)N[C@@H](CC(=O)O)C(=O)COC(=O)c1c(C)cccc1C | CASP10 | enzyme activity, inhibitor |  |  |  | kinact/KI | 14000 M⁻¹ s⁻¹ |
| C=C1C(=O)C2(C(=O)N3CCN(C(C)=O)CC3)CC(=O)CC1C2 (racemic) | PTPN11 | enzyme activity, covalent inhibitor |  | added: pNPP substrate |  | kinact/KI | 15.4 M⁻¹ s⁻¹ |
| CC(=O)N[C@@H](CC(=O)O)C(=O)N[C@@H](CCCC(=O)O)C(=O)N1[C@H](C(=O)N[C@@H](CC(=O)O)C(=O)COC(=O)c2c(C)cccc2C)C[C@@H]2CCCC[C@@H]21 | CASP10 | enzyme activity, inhibitor |  |  |  | kinact/KI | 263000 M⁻¹ s⁻¹ |
| COc1cc(-c2cn(C)c(=O)c3cnccc23)cc(OC)c1CN(C)C | TRIM24 (Homo sapiens, UniProt O15164) |  |  |  |  | ΔTm | 0.4 °C |
